Results pooled from the literature.
Each numbered part is a random draw from the data of one study; scales do not carry over between parts. Positions count from the first letter of the parent shown.

Series 1 — technique: protein binding microarray; form: double-stranded DNA, one strand shown; medium: in vitro; tested at: not given; relative to: not given; direction: higher = stronger binding; endpoint: E-score
Target: Histone acetyltransferase KAT6A, winged helix 2, GST fusion (KAT6A, Homo sapiens, UniProt Q92794, residues 85-181)
Notes: 8-mer, flanks averaged, mean of 2 arrays, mostly near background
Construct (chain): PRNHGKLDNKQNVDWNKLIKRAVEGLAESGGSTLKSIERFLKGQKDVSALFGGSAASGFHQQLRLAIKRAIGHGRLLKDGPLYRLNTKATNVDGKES
GGAAGCTA: 0.301
ATCCCCGC: 0.187
GCCAAGTA: -0.171
AAGGACCG: 0.0199
ACGATCAT: -0.14
CGTACCCA: -0.0542
AGAGCCCA: -0.00551
AGCCAACC: 0.142
AAGAGATA: -0.0669
ACTCGATC: -0.0255
CGTTCGAC: -0.0336
AAGCGCCG: 0.0154
CTACAAAA: 0.149
CATGCACA: -0.0765
CGACCTAG: 0.126
AATGCATC: -0.0578
CAGGACGG: 0.0962
GCAACTGA: -0.00646
CCTTAGTC: -0.139
AGATAAAA: 0.144
AAGCTAGT: -0.0195
AGTACCGC: -0.0915
ACCTGAGG: 0.04
AGTTATAG: -0.133

Series 2 — target: CCND2, cyclin fold, Cln2 fusion (human); technique: yeast growth competition, sequencing; medium: yeast; notes: weak parent motif; relative to: not given; direction: higher = stronger binding; endpoint: normalised enrichment score
Starting sequence: CDKN1B docking peptide (human); PSACRNLFGPVDH; partner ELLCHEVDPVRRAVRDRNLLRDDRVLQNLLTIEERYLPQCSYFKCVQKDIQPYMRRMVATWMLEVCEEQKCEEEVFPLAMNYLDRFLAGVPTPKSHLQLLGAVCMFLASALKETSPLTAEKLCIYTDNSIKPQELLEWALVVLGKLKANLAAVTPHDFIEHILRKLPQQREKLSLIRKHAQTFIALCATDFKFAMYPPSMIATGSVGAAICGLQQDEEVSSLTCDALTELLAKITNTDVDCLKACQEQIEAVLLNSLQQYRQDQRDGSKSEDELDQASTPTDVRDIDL
C4Q: 0.0629
C4L: 0.357
P10S: 0.0766
C4F: 0.201
N6V: 0.415
L7A: 0.117
P1N: 0.0932
F8P: -0.0431
R5A: -0.144
L7M: 0.365
D12F: 0.266
P1W: 0.245
A3W: 0.142
P1F: 0.378
D12C: 0.363
H13C: 0.25
H13W: 0.26

Series 3 — technique: universal PBM; form: double-stranded DNA, one strand shown; medium: in vitro; tested at: not given; direction: higher = stronger binding; endpoint: E-score
Target: Sal-like protein 4, full length isoform B (SALL4, Homo sapiens, UniProt Q9UJQ4-2, residues 1-616)
Notes: 8-mer, flanks averaged, mean of replicates
AACTCTGG: 0.0218
ATACCCTG: -0.0375
AATCGATA: 0.244
TATCTACA: 0.165
GCCTTCCA: 0.0381
CCGCCAAG: -0.223
AAACTACC: 0.162
AATGTCAC: 0.167
CAAGCTAG: -0.11
AATTATGG: 0.391
AGCCACCA: -0.0938
CTATGGGC: -0.108
ACGGGGCT: -0.256
AAAGCATT: 0.221
AGCCCATA: 0.0673
AGCGGTAA: 0.00351
CCGTCTCA: -0.165
ACCGAAGG: -0.0621
CAAATTCC: 0.235
AGAGAAGC: -0.171
AGATATGC: 0.173
CTCTCTTA: 0.0544
CCGTCTCG: -0.201
GTGGTAAA: -0.00287
CGCGCCCG: -0.329

Single results of other studies
PhoQ, residues 284 288 289 292 302 303 SSCCRF — fold induction (PhoP, residues 12 14 15 18 19 QWHVF (Escherichia coli, UniProt P23836); Sort-seq, item: YFP reporter; E. coli; PhoQ-PhoP variant library, with: 10 µM Mg2+; relative to: high Mg2+ state, higher = stronger signaling): 9.44

Excerpt of the above (series 3):
CAAGCTAG: -0.11
AATTATGG: 0.391
AGCCACCA: -0.0938
CTATGGGC: -0.108
ACGGGGCT: -0.256
AAAGCATT: 0.221
AGCCCATA: 0.0673
AGCGGTAA: 0.00351
